Assay results pooled from the literature.
Protocols differ between the studies behind these lines. Numbers after ± are the reported error.
Organism: Escherichia coli

CC(=O)OCC1=C(C(=O)O)N2C(=O)[C@@H](NC(=O)Cc3cccs3)[C@H]2SC1 — MIC (BL21(DE3) wild type): 31.2 µg/mL
CC[C@H](C)[C@H](NC(=O)[C@H](CCCCN)NC(=O)[C@H](CCC(N)=O)NC(=O)[C@@H](NC(=O)[C@@H](NC(=O)[C@H](CCCCN)NC(=O)[C@@H](N)CCCCN)[C@@H](C)CC)C(C)C)C(=O)N[C@@H](CCCCN)C(=O)N[C@@H](CC(=O)O)C(=O)N[C@@H](Cc1ccccc1)C(=O)N[C@@H](CC(C)C)C(=O)N[C@@H](CCCCN)C(N)=O — MIC (broth microdilution; K12; 16 h, 37 °C): 106 ± 55 µM
CN(C)c1cc(NC(=O)CNC(C)(C)C)c(O)c2c1C[C@H]1C[C@H]3[C@H](N(C)C)C(O)=C(C(N)=O)C(=O)[C@@]3(O)C(O)=C1C2=O — MIC (DH5a with empty vector): 0.125 µg/mL
CC[C@H](C)[C@@H]1NC(=O)[C@H](CCCNC(=N)N)NC(=O)[C@@H](NC(=O)[C@H](CC(C)C)NC(=O)[C@@H](N)CCCNC(=N)N)CSSC[C@@H](C(=O)N[C@@H](CCCNC(=N)N)C(=O)O)NC(=O)[C@H](C(C)C)NC(=O)[C@H](CCCNC(=N)N)NC(=O)[C@H]([C@@H](C)CC)NC(=O)[C@H](C(C)C)NC(=O)[C@H](C(C)C)NC1=O — MIC (broth microdilution; NBRC 3972, Mueller-Hinton broth; 24 h, 37 °C): 50 µM
CC[C@H](C)[C@H](NC(=O)[C@H](CCCCN)NC(=O)[C@H](CCCCN)NC(=O)CNC(=O)[C@H](CCCCN)NC(=O)[C@H](CC(C)C)NC(=O)[C@H](CCCCN)NC(=O)[C@H](CCCNC(=N)N)NC(=O)[C@@H](NC(=O)[C@H](CC(C)C)NC(=O)[C@H](CCCNC(=N)N)NC(=O)[C@@H](N)CCCNC(=N)N)[C@@H](C)CC)C(=O)N[C@@H](Cc1ccc(O)cc1)C(=O)N[C@@H](CC(C)C)C(=O)N[C@@H](Cc1ccc(O)cc1)C(=O)N[C@@H](Cc1ccccc1)C(=O)N[C@@H](CCCCN)C(=O)N[C@@H](CC(C)C)C(=O)N[C@@H](CCC(N)=O)C(=O)N[C@@H](CC(C)C)C(=O)N[C@@H](CC(C)C)C(=O)N[C@@H](CCCCN)C(=O)N[C@@H](CCCCN)C(N)=O — MIC (KCTC 1682, Mueller-Hinton broth; together with: 1 mM MgCl2): 16 µM
CO[C@@H](C(N)=O)[C@H](NC(=O)c1ccc(NC(=O)c2ccc(C#N)cc2)cc1)C(=O)Nc1ccc(C(=O)Nc2ccc(C(=O)Nc3ccc(C(=O)O)cc3)c(O)c2OC(C)C)cc1 — MIC (K12 ΔtolC): < 0.03 µg/mL
C[C@@H](O)[C@H](NC(=O)[C@H](Cc1ccccc1)NC(=O)[C@H](Cc1c[nH]c2ccccc12)NC(=O)[C@H](Cc1ccccc1)NC(=O)[C@@H](NC(=O)[C@H](Cc1ccccc1)NC(=O)[C@H](CCCNC(=N)N)NC(=O)[C@@H](N)CCCNC(=N)N)[C@@H](C)O)C(=O)N[C@@H](Cc1ccccc1)C(=O)N[C@@H](CCCNC(=N)N)C(=O)N[C@@H](CCCNC(=N)N)C(N)=O — MIC (broth microdilution; 25922, Mueller-Hinton broth; 24 h, 37 °C, lowest concentration, 95% inhibition, together with: BSA): 16 µM
CCCCCC(=O)N[C@@H](CCCNC(=N)N)C(=O)N[C@@H](CCCNC(=N)N)C(=O)N[C@@H](CCCNC(=N)N)C(=O)N[C@@H](CCCNC(=N)N)C(=O)N[C@H](C(=O)N[C@@H](CC(C)C)C(=O)N[C@H](C(=O)N[C@@H](CCCNC(=N)N)C(=O)N[C@@H](CCCNC(=N)N)C(=O)N[C@H](C(=O)N[C@@H](CC(C)C)C(=O)N[C@@H](CCCNC(=N)N)C(=O)N[C@@H](CC(C)C)C(=O)N[C@@H](CCCNC(=N)N)C(=O)N[C@@H](CO)C(=O)N[C@@H](CO)C(=O)N[C@@H](C)C(=O)N[C@@H](Cc1ccc(O)cc1)C(N)=O)C(C)C)[C@@H](C)CC)[C@@H](C)CC — MIC (checkerboard; 24 h, 37 °C, alone, azithromycin plate): 16 µM
C[C@H]1[C@H](NC(=O)/C(=N\OC(C)(C)C(=O)O)c2csc(N)n2)C(=O)N1S(=O)(=O)O — MIC (broth microdilution; ATCC 2469, NDM-positive; compound alone): 8 µg/mL
CC[C@H](C)[C@H](NC(=O)[C@H](CC(C)C)NC(=O)[C@H](CCCCN)NC(=O)[C@@H](NC(=O)[C@H](C)NC(=O)[C@H](CCC(=O)O)NC(=O)[C@H](Cc1c[nH]cn1)NC(=O)[C@@H](NC(=O)[C@H](CCCCN)NC(=O)[C@H](CCC(N)=O)NC(=O)[C@H](Cc1ccccc1)NC(=O)[C@@H](NC(=O)[C@H](CCCCN)NC(=O)[C@@H](N)CCCCN)C(C)C)[C@@H](C)CC)[C@@H](C)CC)C(N)=O — MIC (broth microdilution; CCARM 1229 resistant; 18 h, 37 °C): 16 µM
CCN1CCN(C(=O)N[C@@H](C(=O)N[C@@H]2C(=O)N3[C@@H]2SC(C)(C)[C@@H]3C(=O)O)c2ccccc2)C(=O)C1=O — MIC (broth microdilution; ATCC 35218, low-level TEM-1; no clavulanic acid): > 200 µg/mL
CC(C)Oc1c(NC(=O)c2ccc(NC(=O)[C@H](CC(N)=O)NC(=O)c3ccc(/N=N/c4ccc(N(C)C)cc4)cc3)cc2)ccc(C(=O)Nc2ccc(C(=O)O)cc2)c1O — MIC (BW25113; 18 h, 37 °C, dark-adapted state): 0.13 µg/mL
CC[C@H](C)[C@H](NC(=O)CNC(=O)[C@H](C)NC(=O)[C@@H](NC(=O)[C@@H](NC(=O)[C@@H](NC(=O)[C@H](CCCNC(=N)N)NC(=O)[C@@H](NC(=O)[C@@H](NC(=O)[C@@H](NC(=O)[C@@H]1CCCN1C(=O)[C@H](Cc1c[nH]c2ccccc12)NC(=O)[C@@H](NC(=O)[C@H](CCCNC(=N)N)NC(=O)[C@H](CCCCN)NC(=O)[C@@H](NC(=O)[C@@H](N)CCCNC(=N)N)[C@@H](C)CC)C(C)C)C(C)C)C(C)C)[C@@H](C)CC)[C@@H](C)O)C(C)C)C(C)C)C(=O)N[C@@H](CC(N)=O)C(=O)N[C@@H](CC(C)C)C(=O)N[C@@H](Cc1ccc(O)cc1)C(=O)N[C@@H](CCCNC(=N)N)C(=O)N[C@@H](C)C(=O)N[C@H](C(=O)N[C@@H](CCCCN)C(=O)N[C@@H](CCCNC(=N)N)C(=O)N[C@@H](CCCCN)C(=O)O)[C@@H](C)CC — MIC (broth microdilution; K88, Mueller-Hinton broth; 37 °C): 0.707 µM
CC1(C)SC2C(NC(=O)C(NC(=O)C3=C(O)C4(CC4)NC3=O)c3ccccc3)C(=O)N2C1C(=O)O (centres unmarked) — MIC (broth microdilution; isolate IU, CTX-M-14, TEM-1; no clavulanic acid): > 200 µg/mL
CC[C@H](C)[C@H](N)C(=O)N[C@@H](CC(C)C)C(=O)NCC(=O)N[C@H](CCCNC(=N)N)C(=O)N[C@H](C(=O)N[C@@H](Cc1c[nH]c2ccccc12)C(=O)N[C@@H](CCCCN)C(=O)NCC(=O)N[C@H](C(=O)N[C@@H](CCCCN)C(=O)N[C@@H](CC(=O)O)C(=O)N[C@H](C(=O)N[C@@H](CC(C)C)C(N)=O)[C@@H](C)CC)[C@@H](C)CC)[C@@H](C)CC — MIC (broth microdilution; ATCC 25922; together with: human serum 10%): 12.5 µM
CC(C)[C@H](NC(=O)[C@H](C)N)C(=O)N[C@@H](C)C(=O)N[C@H](C(=O)N[C@H](C(=O)NCC(=O)N[C@@H](CCC(N)=O)C(=O)N[C@@H](C)C(=O)N[C@@H](C)C(=O)N[C@H](C(=O)N[C@H](C(=O)N[C@H](C(=O)N[C@@H](CCCCN)C(N)=O)C(C)C)C(C)C)[C@@H](C)O)C(C)C)C(C)C — MIC (K1 ATCC 700973, Mueller-Hinton broth; 16 h, 37 °C; growth inhibition over 99%): > 64 µM
C/C(O)=C1\C(=O)C(CC(C)C)N(C(=O)CCCCCc2ccccc2)C1=O (centres unmarked) — MIC (K12 ΔtolC): 0.39 µg/mL
CC[C@H](C)[C@H](NC(=O)[C@H](CC(C)C)NC(=O)[C@H](CCCNC(=N)N)NC(=O)[C@@H](N)CCCNC(=N)N)C(=O)N[C@@H](CCCNC(=N)N)C(=O)N[C@@H](CCCCN)C(=O)N[C@@H](CC(C)C)C(=O)N[C@@H](CCCCN)C(=O)NCC(=O)N[C@@H](CC(C)C)C(=O)N[C@@H](CCCCN)C(=O)N[C@@H](CCCCN)C(=O)N[C@@H](Cc1ccc(O)cc1)C(=O)N[C@@H](CC(C)C)C(=O)N[C@@H](Cc1ccc(O)cc1)C(=O)N[C@@H](Cc1ccccc1)C(=O)N[C@@H](CCCCN)C(=O)N[C@@H](CC(C)C)C(=O)N[C@@H](CCC(N)=O)C(=O)N[C@@H](CC(C)C)C(=O)N[C@@H](CC(C)C)C(=O)N[C@@H](CCCCN)C(=O)N[C@@H](CCCCN)C(N)=O — MIC (broth microdilution; KCTC 1682, Mueller-Hinton broth; no added salt): 8 µM
CC[C@H](C)[C@H](NC(=O)CNC(=O)[C@H](CC(=O)O)NC(=O)[C@H](CCCNC(=N)N)NC(=O)[C@@H](NC(=O)[C@H](CC(N)=O)NC(=O)[C@H](C)NC(=O)CNC(=O)[C@@H](NC(=O)[C@H](CCCCN)NC(=O)[C@H](CCC(=O)O)NC(=O)[C@@H](NC(=O)[C@H](CCCCN)NC(=O)[C@H](CCCCN)NC(=O)[C@H](Cc1ccccc1)NC(=O)[C@@H](NC(=O)[C@H](CCCCN)NC(=O)[C@H](Cc1c[nH]c2ccccc12)NC(=O)[C@@H](N)CCCNC(=N)N)[C@@H](C)CC)[C@@H](C)CC)C(C)C)C(C)C)C(=O)N[C@H](C(=O)N[C@@H](CCCCN)C(=O)N[C@@H](C)C(=O)NCC(=O)N1CCC[C@H]1C(=O)N[C@@H](C)C(=O)N[C@H](C(=O)N[C@@H](C)C(=O)N[C@H](C(=O)N[C@H](C(=O)NCC(=O)N[C@@H](CCC(N)=O)C(=O)N[C@@H](C)C(=O)N[C@@H](C)C(=O)N[C@H](C(=O)N[C@H](C(=O)N[C@H](C(=O)N[C@@H](CCCCN)C(N)=O)C(C)C)C(C)C)[C@@H](C)O)C(C)C)C(C)C)C(C)C)[C@@H](C)CC — MIC (K1 ATCC 700973, Mueller-Hinton broth; 16 h, 37 °C; growth inhibition over 99%): 2 µM
O=C(O)c1cccc(C(=O)O)n1 — MIC (NDM-1 producing; compound alone): > 2000 µM
